Published values collected from several papers.
± marks the error that the study gave.
ADORA1: Adenosine receptor A1 (ADORA1, Homo sapiens, UniProt P30542)
Sequence of UniProt P30542 (whole entry, looked up): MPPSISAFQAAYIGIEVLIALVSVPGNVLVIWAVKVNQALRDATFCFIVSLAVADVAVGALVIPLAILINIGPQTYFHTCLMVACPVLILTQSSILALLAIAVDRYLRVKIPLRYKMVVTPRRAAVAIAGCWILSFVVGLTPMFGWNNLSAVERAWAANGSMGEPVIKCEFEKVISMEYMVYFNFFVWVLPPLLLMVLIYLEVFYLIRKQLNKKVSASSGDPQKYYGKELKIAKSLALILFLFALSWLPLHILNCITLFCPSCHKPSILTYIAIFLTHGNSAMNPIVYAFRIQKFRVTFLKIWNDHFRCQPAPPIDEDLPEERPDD
Metalloproteinase inhibitor 3: Metalloproteinase inhibitor 3 (Homo sapiens, UniProt P35625)
Sequence of UniProt P35625 (whole entry, looked up): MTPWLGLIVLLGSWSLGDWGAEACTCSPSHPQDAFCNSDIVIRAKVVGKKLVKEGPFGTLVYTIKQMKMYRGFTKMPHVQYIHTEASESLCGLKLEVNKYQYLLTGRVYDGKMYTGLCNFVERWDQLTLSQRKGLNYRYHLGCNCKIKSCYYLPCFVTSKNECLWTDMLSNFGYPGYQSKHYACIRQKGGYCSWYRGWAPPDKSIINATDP
RIPK1: Receptor-interacting serine/threonine-protein kinase 1 (RIPK1, Homo sapiens, UniProt Q13546)
Sequence of UniProt Q13546 (whole entry, looked up): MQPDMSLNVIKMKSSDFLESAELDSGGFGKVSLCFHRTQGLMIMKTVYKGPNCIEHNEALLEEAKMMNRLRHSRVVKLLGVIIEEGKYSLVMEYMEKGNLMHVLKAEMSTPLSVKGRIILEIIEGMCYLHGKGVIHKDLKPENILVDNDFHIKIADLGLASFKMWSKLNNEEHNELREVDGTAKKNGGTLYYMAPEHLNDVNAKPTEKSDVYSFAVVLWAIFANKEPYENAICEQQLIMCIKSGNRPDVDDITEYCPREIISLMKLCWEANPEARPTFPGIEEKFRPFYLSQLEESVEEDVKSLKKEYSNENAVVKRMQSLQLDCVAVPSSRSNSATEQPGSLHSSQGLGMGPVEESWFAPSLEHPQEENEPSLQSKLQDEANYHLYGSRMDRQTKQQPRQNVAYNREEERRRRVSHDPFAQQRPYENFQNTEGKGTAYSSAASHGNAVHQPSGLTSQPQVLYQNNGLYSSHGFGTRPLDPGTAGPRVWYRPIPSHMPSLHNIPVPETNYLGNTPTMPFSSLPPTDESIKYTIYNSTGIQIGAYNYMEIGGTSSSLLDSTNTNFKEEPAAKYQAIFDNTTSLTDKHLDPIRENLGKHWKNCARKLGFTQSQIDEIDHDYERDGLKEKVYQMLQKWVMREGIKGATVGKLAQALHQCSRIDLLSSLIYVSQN
ABO G235S/G268A/L266M/R176G: Histo-blood group ABO system transferase (ABO, Homo sapiens, UniProt P16442, G235S/G268A/L266M/R176G)
Sequence of UniProt P07814 (whole entry, looked up): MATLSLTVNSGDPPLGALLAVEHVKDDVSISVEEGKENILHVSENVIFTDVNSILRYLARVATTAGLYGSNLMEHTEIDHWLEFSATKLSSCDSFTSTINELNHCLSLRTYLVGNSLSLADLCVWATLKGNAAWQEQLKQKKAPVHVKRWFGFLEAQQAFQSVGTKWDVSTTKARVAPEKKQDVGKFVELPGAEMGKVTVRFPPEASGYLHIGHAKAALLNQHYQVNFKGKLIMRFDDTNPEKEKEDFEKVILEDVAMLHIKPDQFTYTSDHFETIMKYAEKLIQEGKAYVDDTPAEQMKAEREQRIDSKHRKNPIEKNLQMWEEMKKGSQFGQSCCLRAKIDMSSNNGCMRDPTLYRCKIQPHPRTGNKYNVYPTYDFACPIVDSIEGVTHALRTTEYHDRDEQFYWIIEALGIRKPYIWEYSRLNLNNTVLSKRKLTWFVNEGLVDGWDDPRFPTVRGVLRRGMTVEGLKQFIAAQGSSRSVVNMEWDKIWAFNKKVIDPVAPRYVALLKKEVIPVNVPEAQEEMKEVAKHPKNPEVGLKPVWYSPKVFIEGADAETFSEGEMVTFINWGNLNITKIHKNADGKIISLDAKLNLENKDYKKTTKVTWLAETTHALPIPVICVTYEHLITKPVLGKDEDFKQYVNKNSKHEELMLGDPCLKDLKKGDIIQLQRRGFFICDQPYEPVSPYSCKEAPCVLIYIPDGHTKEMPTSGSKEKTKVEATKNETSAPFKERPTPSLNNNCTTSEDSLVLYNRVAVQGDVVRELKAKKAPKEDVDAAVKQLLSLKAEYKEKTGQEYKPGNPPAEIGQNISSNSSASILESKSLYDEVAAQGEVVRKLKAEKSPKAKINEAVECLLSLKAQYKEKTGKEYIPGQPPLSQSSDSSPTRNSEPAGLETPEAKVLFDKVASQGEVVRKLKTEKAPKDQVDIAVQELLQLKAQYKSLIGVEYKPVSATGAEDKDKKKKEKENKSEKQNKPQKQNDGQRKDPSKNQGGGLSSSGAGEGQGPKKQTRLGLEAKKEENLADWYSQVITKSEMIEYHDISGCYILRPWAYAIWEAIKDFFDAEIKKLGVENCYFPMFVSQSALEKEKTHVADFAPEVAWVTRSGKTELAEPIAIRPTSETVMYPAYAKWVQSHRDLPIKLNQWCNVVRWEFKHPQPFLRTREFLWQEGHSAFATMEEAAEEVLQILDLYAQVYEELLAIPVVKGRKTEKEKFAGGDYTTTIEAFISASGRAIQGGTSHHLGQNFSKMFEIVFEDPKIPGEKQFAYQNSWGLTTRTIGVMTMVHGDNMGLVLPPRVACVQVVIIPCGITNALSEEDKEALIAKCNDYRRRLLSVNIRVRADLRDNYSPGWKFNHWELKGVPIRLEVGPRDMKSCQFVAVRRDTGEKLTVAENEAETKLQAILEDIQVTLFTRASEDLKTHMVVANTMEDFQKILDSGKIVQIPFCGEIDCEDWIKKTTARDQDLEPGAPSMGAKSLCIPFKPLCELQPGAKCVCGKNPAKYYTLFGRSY
Sequence of UniProt P16442 (whole entry, unmodified, looked up): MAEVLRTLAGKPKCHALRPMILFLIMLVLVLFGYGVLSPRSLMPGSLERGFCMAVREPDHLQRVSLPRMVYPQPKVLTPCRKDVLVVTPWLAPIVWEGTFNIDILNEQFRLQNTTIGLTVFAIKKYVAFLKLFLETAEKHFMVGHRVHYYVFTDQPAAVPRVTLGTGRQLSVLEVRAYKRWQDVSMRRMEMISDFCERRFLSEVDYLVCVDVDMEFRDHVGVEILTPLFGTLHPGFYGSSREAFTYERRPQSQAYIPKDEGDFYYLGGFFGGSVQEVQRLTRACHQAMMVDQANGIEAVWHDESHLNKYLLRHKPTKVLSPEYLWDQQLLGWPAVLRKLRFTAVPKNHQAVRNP
Sequence of UniProt Q13131 (whole entry, unmodified, looked up): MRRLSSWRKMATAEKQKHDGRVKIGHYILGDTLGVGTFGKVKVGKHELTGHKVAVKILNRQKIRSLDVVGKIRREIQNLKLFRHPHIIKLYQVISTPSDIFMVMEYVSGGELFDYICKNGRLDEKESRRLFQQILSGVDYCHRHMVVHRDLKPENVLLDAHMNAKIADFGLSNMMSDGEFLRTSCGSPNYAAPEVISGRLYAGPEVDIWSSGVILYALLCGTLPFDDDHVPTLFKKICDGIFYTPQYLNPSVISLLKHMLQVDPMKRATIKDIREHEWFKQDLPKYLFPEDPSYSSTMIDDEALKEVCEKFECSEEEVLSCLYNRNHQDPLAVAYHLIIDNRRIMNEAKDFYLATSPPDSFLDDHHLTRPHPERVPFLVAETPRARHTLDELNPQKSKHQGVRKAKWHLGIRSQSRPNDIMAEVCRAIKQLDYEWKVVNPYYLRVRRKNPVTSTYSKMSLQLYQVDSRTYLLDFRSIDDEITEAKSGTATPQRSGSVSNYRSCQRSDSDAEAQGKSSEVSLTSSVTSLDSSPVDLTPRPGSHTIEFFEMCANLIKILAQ
Sequence of UniProt Q86W56 (whole entry, unmodified, looked up): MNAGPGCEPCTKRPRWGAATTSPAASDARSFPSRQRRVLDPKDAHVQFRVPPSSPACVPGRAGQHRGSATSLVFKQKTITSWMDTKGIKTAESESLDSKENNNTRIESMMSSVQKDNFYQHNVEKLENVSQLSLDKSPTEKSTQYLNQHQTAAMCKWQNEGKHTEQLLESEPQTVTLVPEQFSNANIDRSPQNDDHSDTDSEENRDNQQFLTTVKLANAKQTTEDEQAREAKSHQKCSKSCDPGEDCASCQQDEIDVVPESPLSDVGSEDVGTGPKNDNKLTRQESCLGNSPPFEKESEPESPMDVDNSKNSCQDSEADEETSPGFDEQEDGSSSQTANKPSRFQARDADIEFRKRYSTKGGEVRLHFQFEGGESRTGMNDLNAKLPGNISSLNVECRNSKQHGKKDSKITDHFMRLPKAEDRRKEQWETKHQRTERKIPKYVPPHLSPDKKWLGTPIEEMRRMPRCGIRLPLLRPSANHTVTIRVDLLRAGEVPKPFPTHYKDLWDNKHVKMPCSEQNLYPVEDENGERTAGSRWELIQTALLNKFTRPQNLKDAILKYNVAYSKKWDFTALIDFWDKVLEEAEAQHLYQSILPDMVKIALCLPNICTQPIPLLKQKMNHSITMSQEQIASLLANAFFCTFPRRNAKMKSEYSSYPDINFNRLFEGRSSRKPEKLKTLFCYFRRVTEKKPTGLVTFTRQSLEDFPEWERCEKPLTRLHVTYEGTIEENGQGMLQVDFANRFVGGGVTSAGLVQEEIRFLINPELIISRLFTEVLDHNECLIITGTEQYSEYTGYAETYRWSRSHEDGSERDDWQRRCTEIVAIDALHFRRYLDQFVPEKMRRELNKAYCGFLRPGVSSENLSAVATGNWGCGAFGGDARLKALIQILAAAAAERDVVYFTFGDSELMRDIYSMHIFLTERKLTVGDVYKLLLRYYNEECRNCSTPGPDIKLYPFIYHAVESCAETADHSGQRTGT
Sequence of UniProt Q9Y6W8 (whole entry, looked up): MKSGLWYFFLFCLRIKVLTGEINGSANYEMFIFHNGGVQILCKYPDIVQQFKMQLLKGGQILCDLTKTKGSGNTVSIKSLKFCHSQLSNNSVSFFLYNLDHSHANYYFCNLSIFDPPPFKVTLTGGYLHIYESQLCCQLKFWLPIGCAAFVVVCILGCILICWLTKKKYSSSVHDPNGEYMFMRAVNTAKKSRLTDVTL
Sequence of UniProt B9K712 (whole entry, looked up): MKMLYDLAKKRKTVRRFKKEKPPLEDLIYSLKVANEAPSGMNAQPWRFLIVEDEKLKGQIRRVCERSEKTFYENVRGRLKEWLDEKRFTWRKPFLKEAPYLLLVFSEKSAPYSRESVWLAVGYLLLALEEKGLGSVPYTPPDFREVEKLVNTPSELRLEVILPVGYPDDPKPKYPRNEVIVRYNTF

CC(=O)N[C@@H]1[C@@H](O[C@@H]2O[C@H](C(=O)O)[C@@H](O[C@@H]3O[C@H](COS(=O)(=O)O)[C@@H](OS(=O)(=O)O)[C@H](O[C@@H]4O[C@H](C(=O)O)[C@@H](OS(=O)(=O)O)[C@H](OS(=O)(=O)O)[C@H]4OS(=O)(=O)O)[C@H]3NC(C)=O)[C@H](OS(=O)(=O)O)[C@H]2OS(=O)(=O)O)[C@H](OS(=O)(=O)O)[C@@H](COS(=O)(=O)O)O[C@H]1N=[N+]=[N-] gave a Kd of 0.294 µM (Fibroblast growth factor 2 (Homo sapiens, UniProt P09038); ligand displacement, FP).
CN(C)CCNC(=O)c1cccc2c(NCCCCc3c(N)nc(N)nc3N)c3ccccc3nc12 has a Kd of 2270 ± 360 µM (RNA with A–A mismatch; binding, ITC; 25 °C, 2).
N[C@@H](Cc1ccc(O)c(I)c1)C(=O)O gave a Kd of 0.05 ± 0.02 µM (Iodotyrosine deiodinase (IYD, Thermotoga neapolitana, UniProt B9K712); binding, FMN fluorescence quenching; pH 7.4, 25 °C, wild-type enzyme).
O=C(NCc1ccco1)c1nn[nH]c1Nc1ccccc1 has a Kd of 21 µM (MAPK10 (Homo sapiens, UniProt P53779); binding, mass spectrometry).
For C[C@@H]1Cc2cc(-c3ccnc4ncnn34)ccc2O1, the Kd was > 25 µM (WD repeat-containing protein 55 (WDR55, Homo sapiens, UniProt Q9H6Y2)).
CC(=O)N[C@H]1[C@@H](OP(=O)(O)OP(=O)(O)OC[C@H]2O[C@@H](n3ccc(=O)[nH]c3=O)[C@H](O)[C@@H]2O)O[C@H](CO)[C@@H](O)[C@@H]1O gave a Kd of 374 ± 13 µM (ABO (Homo sapiens, UniProt P16442); binding, methyl-TROSY NMR titration; pH 6.8, 298 K, apo enzyme, added: Mg2+).
With COc1cncc(-c2cc(F)cc(CNC(=O)c3cc(N4CC[C@@](C#N)(C5CC5)C4=O)cc(C)n3)c2)c1 the Kd was 0.0047 µM (EPRS1 (Homo sapiens, UniProt P07814); binding, MST).
For N=C(N)NCCC[C@H](NC(=O)[C@H](CS)NC(=O)[C@H](Cc1ccc(O)cc1)NC(=O)[C@H](Cc1c[nH]c2ccccc12)NC(=O)[C@H](CCCNC(=N)N)NC(=O)[C@H](Cc1c[nH]c2ccccc12)NC(=O)[C@H](Cc1c[nH]cn1)NC(=O)CNC(=O)CN)C(=O)NCC(=O)NCC(=O)N[C@@H](CCCCN)C(N)=O, the Kd was 7 ± 0.6 µM (HIV RRE IB RNA; fluorescein-labelled RNA titration; 1 mM TCEP).
The Kd of CCOc1ccc2nc(Sc3nc(Nc4ccc(I)cc4)nc(N4CCOCC4)n3)sc2c1 is reported as 0.034 µM (PIKFYVE (Homo sapiens, UniProt Q9Y2I7); binding, KINOMEscan).
With CCNC(=O)[C@H]1O[C@@H](n2cnc3c(NCCCNC(=O)CCCCCNC(=O)COc4ccc(/C=C/C5=[N+]6C(=Cc7ccc(-c8cccs8)n7[B-]6(F)F)C=C5)cc4)ncnc32)[C@H](O)[C@@H]1O the Kd was 0.24 µM (ADORA1; radioligand binding; CHO-A1; apparent, from IC50, added: [3H]DPCPX).
CS[C@@H]1O[C@H](COS(=O)(=O)O)[C@@H](OS(=O)(=O)O)[C@H](O[C@@H]2O[C@H](C(=O)O)[C@@H](O[C@@H]3O[C@H](COS(=O)(=O)O)[C@@H](OS(=O)(=O)O)[C@H](O[C@@H]4O[C@H](C(=O)O)[C@@H](OS(=O)(=O)O)[C@H](OS(=O)(=O)O)[C@H]4OS(=O)(=O)O)[C@H]3NC(C)=O)[C@H](OS(=O)(=O)O)[C@H]2OS(=O)(=O)O)[C@H]1NC(C)=O gave a Kd of 0.86 µM (Metalloproteinase inhibitor 3; ligand displacement, FP).
COc1cc(-c2nc3ccc(C(=O)NCCCN(C)C)cc3n2C2CCC2)cc(OC)c1OC gave a Kd of 0.847 µM (TGFBR1 (Homo sapiens, UniProt P36897); binding, TR-FRET).
For CC(=O)N[C@@H]1[C@@H](O[C@@H]2O[C@H](C(=O)O)[C@@H](O[C@@H]3O[C@H](COS(=O)(=O)O)[C@@H](OS(=O)(=O)O)[C@H](O[C@@H]4O[C@H](C(=O)O)[C@@H](O[C@@H]5O[C@H](COS(=O)(=O)O)[C@@H](OS(=O)(=O)O)[C@H](O[C@@H]6O[C@H](C(=O)O)[C@@H](OS(=O)(=O)O)[C@H](OS(=O)(=O)O)[C@H]6OS(=O)(=O)O)[C@H]5NC(C)=O)[C@H](OS(=O)(=O)O)[C@H]4OS(=O)(=O)O)[C@H]3NC(C)=O)[C@H](OS(=O)(=O)O)[C@H]2OS(=O)(=O)O)[C@H](OS(=O)(=O)O)[C@@H](COS(=O)(=O)O)O[C@H]1N=[N+]=[N-], the Kd was 0.67 µM (Metalloproteinase inhibitor 3; ligand displacement, FP).
For Cc1cc(N2CC[C@@](C#N)(C3(C)CC3)C2=O)cc(C(=O)NCc2cc(F)cc(-c3cnn(C)c3)c2)n1, the Kd was 0.124 µM (Bifunctional glutamate/proline--tRNA ligase, prolyl-tRNA synthetase domain (EPRS1, Homo sapiens, UniProt P07814); binding, microscale thermophoresis).
Cc1cc2nc(NC(=O)C3CC3)sc2c(C)c1Oc1ccc(F)c(NC(=O)Cc2cccc(C(F)(F)F)c2)c1 gave a Kd of 0.05 µM (RIPK1; binding, competition with immobilised ligand).
COc1cc(C2CC(=O)Nc3nc(N)[nH]c(=O)c32)ccc1O (stereo not drawn) gave a Kd of 1.2 µM (uncharacterized protein (Leishmania donovani, UniProt A0A3Q8IA09); ITC; 298 K).
C=CCCCCCCO[C@@H]1O[C@H](CO)[C@H](O)[C@H](O[C@@H]2O[C@H](CO)[C@H](O)[C@H](O)[C@H]2O[C@@H]2O[C@@H](C)[C@@H](O)[C@@H](O)[C@@H]2O)[C@H]1O gave a Kd of 1270 ± 20 µM (ABO G235S/G268A/L266M/R176G; methyl-TROSY NMR titration lineshape analysis; apo enzyme).
With C[C@H](NC(=O)[C@H](C)NC(=O)[C@H](CO)NC(=O)[C@@H](N)CC(=O)O)C(=O)N[C@@H](CCCCN)C(=O)N[C@@H](CCCNC(=N)N)C(=O)N[C@@H](Cc1c[nH]cn1)C(=O)N[C@@H](Cc1c[nH]cn1)C(=O)NCC(=O)N[C@@H](Cc1ccc(O)cc1)C(=O)N[C@@H](CCCCN)C(=O)N[C@@H](CCCNC(=N)N)C(N)=O the Kd was 0.2 µM (Cu(I); binding, Ferrozine competition titration; pH 7.4, anaerobic).
For CC(=O)N[C@@H]1[C@@H](O[C@@H]2O[C@H](C(=O)O)[C@@H](O[C@@H]3O[C@H](COS(=O)(=O)O)[C@@H](O)[C@H](O[C@@H]4O[C@H](C(=O)O)[C@@H](O)[C@H](O)[C@H]4O)[C@H]3NC(C)=O)[C@H](O)[C@H]2O)[C@H](O)[C@@H](COS(=O)(=O)O)O[C@H]1N=[N+]=[N-], the Kd was 185 µM (Bone morphogenetic protein 2 (Homo sapiens, UniProt P12643); ligand displacement, FP).
Cc1c(OCc2ccc(Cl)c(Cl)c2)ccc(-c2cc[nH]n2)c1O gave a Kd of 144 µM (Inducible T-cell costimulator (Homo sapiens, UniProt Q9Y6W8); binding, MST; pH 7.4).
For CC(=O)c1cnc(N)nc1N1CC[C@H]1c1nn2ccc(Cl)c2c(=O)n1-c1ccccc1, the Kd was 0.00243 µM (Phosphatidylinositol 4,5-bisphosphate 3-kinase catalytic subunit delta isoform, with p85 (PIK3CD, Homo sapiens, UniProt O00329); binding, SPR).
CC(C)(O)C#Cc1cccc(F)c1 has a Kd of > 1000 µM (Microphthalmia-associated transcription factor (Homo sapiens, UniProt O75030); binding, NMR).
OC(Cc1cc(-c2ccc(C(O)C(F)(F)F)s2)sc1-c1ccc(-c2sc(-c3ccc(C(O)C(F)(F)F)s3)cc2CC(O)C(F)(F)F)s1)C(F)(F)F (stereo not drawn) has a Kd of 3.04 ± 0.71 µM (Microtubule-associated protein tau, 0N4R isoform, aggregated (MAPT, Homo sapiens, UniProt P10636); binding, fluorescence; 30% sucrose tau fraction).
The Kd of CN(C)c1cc2ccccc2c(N)n1 is reported as 19.9 ± 2.8 µM (CUGBP Elav-like family member 1, RRM1/2 domains (CELF1, Homo sapiens, UniProt Q92879, R148A); isothermal titration calorimetry; 25 °C).
COC(=O)c1c(Oc2ccc(F)c(NC(=O)Cc3cccc(C(F)(F)F)c3)c2)ccc2nc(NC(=O)C3CC3)sc12 gave a Kd of 0.34 µM (RIPK1; binding, competition with immobilised ligand).
CC1(C)Cc2sc(NC(=O)Cc3ccc(S(N)(=O)=O)cc3)c(C#N)c2CN1CC1CCCCC1 gave a Kd of 0.437 µM (Genome polyprotein, NS4B (Dengue virus type 1, UniProt P17763); binding, isothermal titration calorimetry; NS4B, DENV-1).
The Kd of O=C(O[C@@H]1Cc2c(O)cc(O)cc2O[C@@H]1c1cc(O)c(O)c(O)c1)c1cc(O)c(O)c(O)c1 is reported as 36 µM (PNLIP (Sus scrofa, UniProt P00591); binding, fluorescence titration; pH 8.0).
The Kd of COc1cc2c(cc1-c1c(C)noc1C)ncc1[nH]c(=O)n([C@H](C)c3ccccn3)c12 is reported as 33 ± 25 µM (Bromodomain factor 2 (Trypanosoma brucei brucei, UniProt Q38AM1); SPR; Trypanosoma brucei).
For CCCn1c(=O)c2[nH]c(-c3ccc(OCC(=O)NCCNC(=O)CCCCCCCNS(=O)(=O)c4cccc5c(N(C)C)cccc45)cc3)nc2n(CCC)c1=O, the Kd was 0.038 µM (ADORA1; CRE reporter gene, antagonist; CHO-A1; Gs-mediated enhancement, added: NECA and forskolin).
Cc1ccc(S/N=C/c2c(O)ccc3ccccc23)cc1 gave a Kd of ~64.4 µM (Poly(ADP-ribose) glycohydrolase (Homo sapiens, UniProt Q86W56, N869A); isothermal titration calorimetry; mutant protein).
The Kd of CCCn1c(=O)c2[nH]c(-c3ccc(OCC(=O)NCCNS(=O)(=O)c4cccc5c(N(C)C)cccc45)cc3)nc2n(CCC)c1=O is reported as 0.0427 µM (ADORA1; CRE reporter gene, antagonist, parallel shift; CHO-A1; Gi-mediated inhibition, added: NECA and forskolin).
C=CCCCCCCO[C@@H]1O[C@H](CO)[C@@H](O)[C@H](O[C@@H]2O[C@H](CO)[C@H](O)[C@H](O)[C@H]2O[C@@H]2O[C@@H](C)[C@@H](O)[C@@H](O)[C@@H]2O)[C@H]1NC(C)=O has a Kd of 3200 ± 100 µM (ABO G235S/G268A/L266M/R176G; methyl-TROSY NMR titration lineshape analysis; apo enzyme).
With Cc1ccc(Oc2nc3cc(-c4ccc5c(ccn5C)c4)c(Cl)cc3[nH]2)cc1C(=O)O the Kd was 2.05 µM (PRKAA1/PRKAB1, phosphorylated; with gamma1 (Homo sapiens, UniProt Q13131+Q9Y478, K40A/K42A); biolayer interferometry; AMPK complex α1(K31A/K33A)β1γ1).
